Results pooled from the literature.
Each line is one published result; not all experiments were run side by side. ± gives the spread as reported.

| Compound | target or system | test | test system | conditions | EC50 [nM] |
| --- | --- | --- | --- | --- | --- |
| CCOc1ccc(N(C)S(=O)(=O)c2cc(Cl)sc2C(=O)Nc2cc(Cl)cc(C(=O)OC)c2)cc1OC | CCF-STTG1 | ABCA1 promoter reporter, activator, luciferase reporter | – | – | 339 |
| N#Cc1ccc(C[C@@H](Nc2c(Nc3ccc(F)cc3)c(=O)c2=O)C(=O)N2CCc3ccccc32)cc1 | human neutrophils | calcium mobilization, agonist | – | – | 12800 ± 2900 |
| CCn1cc(-c2cc(Cn3ccnc3)cc3c2CCN([C@H](c2cc(OC)ccn2)C2CC2)C3=O)c(C(F)(F)F)n1 | GCIY | cell growth, inhibitor | – | 120 h | 14800 |
| N#Cc1ccc(C[C@H](Nc2c(Nc3ccc(Br)cc3)c(=O)c2=O)C(=O)N2CCc3ccccc32)cc1 | human neutrophils | calcium mobilization, agonist | – | – | 600 ± 300 |
| Cc1nn(-c2nc3c(F)cc(F)cc3s2)c(O)c1C(c1ccc(C(F)(F)F)cc1)c1c(C)nn(-c2nc3c(F)cc(F)cc3s2)c1O | RAW-ISG (mouse) | IFN reporter gene, inhibitor, luciferase | – | together with: HT-DNA | 2670 |
| N#Cc1ccc(C[C@@H](NC(=O)c2cc3ccccc3[nH]2)C(=O)N2CCc3ccccc32)cc1 | human neutrophils | calcium mobilization, agonist | – | – | > 50000 |
| C=CC(=O)N1[C@@H](c2ccc3c(c2)OCO3)c2[nH]c3ccccc3c2C[C@H]1C(=O)NC | rat DRG neurons | neurite degeneration | – | 48 h, together with: vincristine 40 nM | 3630 |
| CCOc1ccc(N(C)S(=O)(=O)c2cc(Cl)sc2C(=O)Nc2cc(Cl)cc(C(=O)OCCOC)c2)cc1OC | CCF-STTG1 | ABCA1 promoter reporter, activator, luciferase reporter | – | – | 66 |
| N#Cc1ccc(C[C@H](Nc2nnc(-c3cccc(F)c3)o2)C(=O)N2CCc3ccccc32)cc1 | human neutrophils | calcium mobilization, agonist | – | – | > 50000 |
| CCOc1ccc(N(C)S(=O)(=O)c2cc(Cl)sc2C(=O)Nc2cccc(S(C)(=O)=O)c2)cc1OCC | CCF-STTG1 | reporter gene, activator, refers to: ABCA1 promoter luciferase | – | 24 h | 12600 |
| Cc1ncc(Cl)cc1NCc1ccc(C(=O)N[C@@H](CC2CCCC2)C(=O)NC2CC2)s1 | K562 p21-reporter | p21 reporter gene, activator | – | – | 200 |
| CCOC(=O)c1cccc(NC(=O)c2sc(Cl)cc2S(=O)(=O)N(C)c2ccc(OCC)c(OCC)c2)c1 | CCF-STTG1 | ABCA1 promoter reporter, activator, luciferase reporter | – | – | 817 |
| COc1cnc2cccc(N3CCc4c(cc(Cn5ccnc5C)cc4-c4cn(C)nc4C(F)(F)F)C3=O)c2c1 | U266B1 | cell growth | – | 120 h | > 30000 |
| CCCNC(=O)[C@H]1O[C@@H]1C(=O)N[C@H](C(=O)N1CCC[C@H]1C(=O)OC)[C@@H](C)CC | MCF-10A | cell viability, MTT | – | concentration not given, 4 h, irradiated 15 min up to 470 nm | > 100000 |
| N#Cc1ccc(C[C@H](Nc2nnc(-c3ccc(Br)cc3)s2)C(=O)N2CCc3ccccc32)cc1 | human neutrophils | calcium mobilization, agonist | – | – | > 50000 |
| CCOC(=O)c1cc(F)cc(NC(=O)c2sc(Cl)cc2S(=O)(=O)N(C)c2ccc(OCC)c(OC)c2)c1 | CCF-STTG1 | ABCA1 promoter reporter, activator, luciferase reporter | – | – | 29 |
| CCn1cc(-c2cc(Cn3ccoc3=N)cc3c2CCN([C@@H](C)c2cc(OC)ccn2)C3=O)c(C(F)(F)F)n1 | PSN1 | cell growth, inhibitor | – | 120 h | 18.9 |
| O=[N+]([O-])c1ccc2c(c1)S(=O)(=O)C=C2 | Toxoplasma gondii | parasite growth | HFF, bradyzoite, alkaline-induced | – | 5360 |
| Cc1ccc(-c2nnc(N[C@@H](Cc3ccc(C#N)cc3)C(=O)N3CCc4ccccc43)o2)cc1 | human neutrophils | calcium mobilization, agonist | – | – | 29500 ± 10800 |
| O=C1c2ccccc2C(=O)c2c(NCCc3ccc(O)cc3)ccc(NCCc3ccc(O)cc3)c21 | Toxoplasma gondii | tachyzoite growth, luciferase | ME49-Fluc, type II | – | 3390 |
| CCOC(=O)c1cccc(-c2nnc(-c3sc(Cl)cc3S(=O)(=O)N(C)c3ccc(OCC)c(OC)c3)o2)c1 | CCF-STTG1 | reporter gene, activator, refers to: ABCA1 promoter luciferase | – | 24 h | 3000 |
| C[C@]1(c2nc3c(C(N)=O)cccc3[nH]2)CCCN1 | MEF PTEN-/- | cell proliferation, CellTiter-Glo | – | 168 h | 1700 |
| N#Cc1ccc(C[C@@H](Nc2nnc(-c3ccc(F)cc3)s2)C(=O)N2CCc3ccccc32)cc1 | human neutrophils | calcium mobilization, agonist | – | – | > 50000 |
| C[C@]12CCCN1CC1=NNC(=O)c3cc(F)cc4[nH]c2c1c34 | MEF PTEN-/- | cell proliferation, CellTiter-Glo | – | 168 h | 220 |
| CCOC(=O)c1cccc(NC(=O)c2sccc2S(=O)(=O)N(C)c2cccc(OCC)c2)c1 | CCF-STTG1 | reporter gene, activator, refers to: ABCA1 promoter luciferase | – | 24 h | 4600 |
| N#Cc1ccc(C[C@@H](Nc2nnc(-c3ccc(Br)cc3)o2)C(=O)N2CCc3ccccc32)cc1 | human neutrophils | calcium mobilization, agonist | – | – | > 50000 |
| OCCN(CCO)c1nc(N2CCCCC2)c2nc(N(CCO)CCO)nc(N3CCCCC3)c2n1 | Jurkat T cells, FKBP51 knock-out | [3H]-thymidine incorporation, inhibitor | – | 3 h | 72.3 |

For quick reference, copied from above:
| Compound | target or system | test | test system | conditions | EC50 [nM] |
| --- | --- | --- | --- | --- | --- |
| N#Cc1ccc(C[C@@H](Nc2c(Nc3ccc(F)cc3)c(=O)c2=O)C(=O)N2CCc3ccccc32)cc1 | human neutrophils | calcium mobilization, agonist | – | – | 12800 ± 2900 |
| O=[N+]([O-])c1ccc2c(c1)S(=O)(=O)C=C2 | Toxoplasma gondii | parasite growth | HFF, bradyzoite, alkaline-induced | – | 5360 |
| N#Cc1ccc(C[C@H](Nc2c(Nc3ccc(Br)cc3)c(=O)c2=O)C(=O)N2CCc3ccccc32)cc1 | human neutrophils | calcium mobilization, agonist | – | – | 600 ± 300 |
